Experimental data of several laboratories.
Lines come from different studies, so protocols differ. Several values in a cell are separate wells, animals, samples, runs or records. Converted amounts (≈) assume the structure as drawn.

Cn1c(=O)ccc2ccc(F)c(CCNC[C@H]3CN(c4cnc5c(n4)NC(=O)CO5)C(=O)O3)c21  MIC50 (Prevotella sp.): < 0.015 µg/mL
c1ccc2c(-c3nccs3)c[nH]c2c1  IC50 (Trypanosoma cruzi; [3H]uracil incorporation; amastigotes in rat L6E9 myoblasts; 72 h): 11300 nM
CC[C@H](C)[C@H](NC(=O)[C@H](CC(N)=O)NC(=O)[C@H](Cc1ccccc1)NC(=O)[C@H](CCCNC(=N)N)NC(=O)[C@H](CCCNC(=N)N)NC(=O)[C@@H](N)CCCCN)C(=O)N[C@@H](CCCCN)C(=O)N[C@@H](CC(C)C)C(=O)N[C@@H](Cc1c[nH]c2ccccc12)C(=O)N[C@@H](CCCCN)C(=O)N[C@H](C(=O)N[C@@H](Cc1ccccc1)C(=O)O)[C@@H](C)O  MBC (Micrococcus luteus; NCTC 2665): 32 µg/mL (≈ 19.5 µM)
Nc1ncnc2c1ncn2[C@@H]1O[C@@H]2COP(=O)(O)O[C@H]3[C@@H](O)[C@H](n4cnc5c(=O)[nH]cnc54)O[C@@H]3COP(=O)(O)O[C@H]2[C@H]1O  fold enrichment (West Nile virus; RNA sequencing Reactome analysis, refers to: Kinesins (R-HSA-983189); HFF-1; concentration not given, upregulated pathways, added: West Nile virus infection; reference: WNV-infected without compound): 4.95
CN1CCN(S(=O)(=O)c2cc([N+](=O)[O-])ccc2N(CCOS(C)(=O)=O)CCOS(C)(=O)=O)CC1  IC50 (Homo sapiens; cell viability, resazurin or CellTiter-Glo; sample B BCP-ALL PDX cells, ex vivo; 48 h): 820 nM
CC[C@H](C)[C@H](NC(=O)[C@H](C)NC(=O)[C@H](CCCCN)NC(=O)[C@H](CC(C)C)NC(=O)[C@H](C)NC(=O)[C@@H](NC(=O)[C@H](Cc1c[nH]cn1)NC(=O)[C@H](CC(C)C)NC(=O)[C@@H](NC(=O)[C@@H](NC(=O)[C@H](CCCCN)NC(=O)[C@H](C)NC(=O)[C@H](C)NC(=O)[C@H](CO)NC(=O)[C@H](CCCCN)NC(=O)[C@H](Cc1ccccc1)NC(=O)[C@@H](NC(=O)[C@H](CCCCN)NC(=O)[C@H](CC(C)C)NC(=O)[C@H](Cc1ccccc1)NC(=O)[C@H](CO)NC(=O)[C@H](CCCCN)NC(=O)[C@H](Cc1c[nH]c2ccccc12)NC(=O)[C@H](CCCCN)NC(C)=O)[C@@H](C)O)[C@@H](C)O)C(C)C)[C@@H](C)O)C(=O)N[C@@H](CO)C(=O)N[C@@H](CO)C(N)=O  MBC50 (Staphylococcus aureus; MSSA; 67 strains): 4 µg/mL (≈ 1.36 µM)
CS(=O)(=O)CCCn1c(Cn2c(=O)n(CC(F)(F)F)c3ccncc32)cc2cc(Cl)ccc21  LS mean viral load change (respiratory syncytial virus; RT-qPCR; hospitalized infants 1-24 months, nasal swab; oral, 1-9 mg/kg daily, day 4, all doses combined; reference: baseline): -2.65 log10 copies/mL
CO/N=C(\C(=O)N[C@@H]1C(=O)N2C(C(=O)O)=C(CSC(=O)c3ccco3)CS[C@H]12)c1csc(N)n1  MBC (Staphylococcus aureus; CAAS-2019-CAAS-2019-17 clinical blaZ-resistant isolate, PBS): 4 µg/mL
CCCCc1ccc(CNc2nc(N(C)C)nc(N(C)C)c2/N=N/c2ccc(Cl)cc2)cc1  mortality (Plutella xylostella; leaf dipping; 50 mg/L): 83.3%
C=CC[C@@H]1c2ccc(OC)c(OC)c2CN2CCc3cc4c(cc3[C@H]12)OCO4  relative wound size (Staphylococcus aureus; P2rx7 A312V/A312V mice, skin wound infection; dose not given, day 4; reference: day 0): 0.66 and 0.98 and 0.42 and 0.99 and 0.92
Cl.N=C(CC(O)c1cc2c(F)cc(F)cc2c2cc(C(F)(F)F)ccc12)Nc1ccc(Br)cc1 (stereo not shown)  cure rate (Plasmodium berghei; 4-day Peters test; ANKA, mouse; oral, 50 mg/kg, four doses): 100%
CC(C)OC(=O)[C@@H](N)Cc1ccc(OP2(=O)CO[C@@H](Cn3ccc(N)nc3=O)CO2)cc1 (stereo partly shown)  IC50 (human cytomegalovirus; viral replication): 120 nM
O=[N+]([O-])c1cc2c(ccc3c2ccc2cc([N+](=O)[O-])oc23)o1  MIC90 (Mycobacterium marinum; REMA; ATCC BAA-535): 0.0625 µg/mL (≈ 0.21 µM)

For quick reference, copied from above:
Nc1ncnc2c1ncn2[C@@H]1O[C@@H]2COP(=O)(O)O[C@H]3[C@@H](O)[C@H](n4cnc5c(=O)[nH]cnc54)O[C@@H]3COP(=O)(O)O[C@H]2[C@H]1O  fold enrichment (West Nile virus; RNA sequencing Reactome analysis, refers to: Kinesins (R-HSA-983189); HFF-1; concentration not given, upregulated pathways, added: West Nile virus infection; reference: WNV-infected without compound): 4.95
